# Published values collected from several papers.
# Every numbered part comes from another study and shows a few of its results, in no order.

# Set 1
# Target: Centromere-binding protein 1, full length, N-terminal tag (CBF1, Saccharomyces cerevisiae, UniProt P17106, residues 1-351)
# UniProt P17106, sequence (whole entry, looked up): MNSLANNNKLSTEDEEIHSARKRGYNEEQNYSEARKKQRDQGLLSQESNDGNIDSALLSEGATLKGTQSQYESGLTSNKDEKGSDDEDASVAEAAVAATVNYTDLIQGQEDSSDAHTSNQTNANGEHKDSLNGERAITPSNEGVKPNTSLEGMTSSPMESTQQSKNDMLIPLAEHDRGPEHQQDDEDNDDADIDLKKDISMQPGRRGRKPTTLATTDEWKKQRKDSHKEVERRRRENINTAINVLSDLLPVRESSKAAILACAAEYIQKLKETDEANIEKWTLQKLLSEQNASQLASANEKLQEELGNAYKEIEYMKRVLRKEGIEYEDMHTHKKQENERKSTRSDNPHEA
# Method: protein-binding microarray
# Form: double-stranded DNA, one strand shown
# Sample: in vitro
# Concentration: 0.8 µM
# Setting: whole 60-bp probe, no competitor
# Reading: higher = stronger binding
Sequence,fluorescence intensity
TGTACGAAGCTATACGTGACAACTATAGTAGTTAGGGTCTTGATTCGCTTGACGCTGCTG,621 a.u.
TGTACGAAGCTATTAGGTGACATTATAGTAGTTAGGGTCTTGATTCGCTTGACGCTGCTG,539 a.u.
CTATGTATCTTTCATCACCCTTTTGAGAGAATGTTCGTCTTGATTCGCTTGACGCTGCTG,563 a.u.
CTAATGCCTTACCGGAACGTGGATTAAAAGGAGTTCGTCTTGATTCGCTTGACGCTGCTG,546 a.u.

# Set 2
# Target: Sal-like protein 4, full length isoform B (SALL4, Homo sapiens, UniProt Q9UJQ4-2, residues 1-616)
# Method: universal PBM
# Form: double-stranded DNA, one strand shown
# Sample: in vitro
# Concentration: not given
# Setting: 8-mer, flanks averaged, mean of replicates
# Reading: higher = stronger binding
# Residues (chain): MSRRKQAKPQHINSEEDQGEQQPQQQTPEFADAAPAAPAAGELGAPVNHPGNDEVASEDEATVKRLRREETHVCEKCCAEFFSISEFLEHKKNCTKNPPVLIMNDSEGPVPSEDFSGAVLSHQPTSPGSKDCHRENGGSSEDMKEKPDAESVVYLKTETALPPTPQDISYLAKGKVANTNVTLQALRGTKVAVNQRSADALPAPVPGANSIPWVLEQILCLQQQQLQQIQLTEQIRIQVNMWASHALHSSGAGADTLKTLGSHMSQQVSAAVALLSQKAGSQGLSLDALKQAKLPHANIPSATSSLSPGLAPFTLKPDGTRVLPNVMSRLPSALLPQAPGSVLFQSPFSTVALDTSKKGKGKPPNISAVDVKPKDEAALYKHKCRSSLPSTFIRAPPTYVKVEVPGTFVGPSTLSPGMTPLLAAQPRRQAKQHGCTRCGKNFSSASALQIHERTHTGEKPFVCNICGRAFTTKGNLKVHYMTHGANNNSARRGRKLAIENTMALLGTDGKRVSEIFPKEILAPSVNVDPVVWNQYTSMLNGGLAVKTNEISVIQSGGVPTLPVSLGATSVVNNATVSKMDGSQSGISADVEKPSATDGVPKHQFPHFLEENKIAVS
Sequence,E-score
CACCTGCA,-0.181
ACATGTCA,0.0874
ACGCCCCT,-0.154
AAGACACG,0.113
AAGTGCGT,-0.045
ATCCATCA,0.0595

# Set 3
# Target: RNA binding protein fox-1 homolog 2, RRM domain, GST-SBP tag (RBFOX2, Homo sapiens, UniProt O43251-10, residues 100-194)
# Method: RNA Bind-n-Seq
# Form: RNA
# Sample: in vitro
# Concentration: 365 nM
# Setting: natural RNA segment, single round, ends assumed
# Relative to: no-protein control
# Reading: higher = stronger binding
# Residues (chain): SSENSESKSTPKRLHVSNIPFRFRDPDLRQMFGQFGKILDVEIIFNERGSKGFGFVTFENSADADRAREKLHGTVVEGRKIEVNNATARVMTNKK
Sequence,RBNS enrichment (R)
GGGAGUUCUACAGUCCGACGAUCUGAGGGGACCUCUCACCUGGUCACAUGAGGUUGAGGAGGGCCCAGUGUCCUGGCAGAUGAUCAGUACAGUGUCCCCCUCAAGUCACACUUUCCUGCCUUACACAGAGCAGUGGAAUUCUCGGGUGCCAA,0.265
GGGAGUUCUACAGUCCGACGAUCAUAUCUGAACAUUUUUGGUUAUAACUUUUUUAUUGCCUUUGGCUGUUGAUUAGUACAAGUGCAAUUUCAAAAAGAUCUUGAAAGUAAUAUAUUUAAUCAAUUAAAAUGUUUGGAAUUCUCGGGUGCCAA,0.866
GGGAGUUCUACAGUCCGACGAUCUUUUAAGUGAGGAUAUCUACUGUCUGCUUCAUAGGGUGCUUUGCAAUAAAAUGAAAACGUAUUUAUACUGUUUUUACUAAGGUAACAAAAGCAUGAUAAUCCUUUUUUUUUGGAAUUCUCGGGUGCCAA,0.937
GGGAGUUCUACAGUCCGACGAUCAACAAAUGUGUAGGUGGCUGGAGAAAUGGCUUAGUGGUUAAGAGCUCGGUCCUGAGUUCAAUUCCCAGCAACCACAUGGUGGCUCAUAGCCAUCUGUAAUGGGAUUUGGUUGGAAUUCUCGGGUGCCAA,0.589

# Single results of other studies
Molecule,target,test,test system,setting,scale,quantity,value
"PhoQ, residues 284 288 289 292 302 303 SSTMSV","PhoP, residues 12 14 15 18 19 VQALL (Escherichia coli, UniProt P23836)","Sort-seq, measured: YFP reporter",E. coli,"PhoQ-PhoP variant library, with: 10 µM Mg2+","relative to: high Mg2+ state, higher = stronger signaling",fold induction,18.8
